# Measurements of several laboratories.
# Numbered parts are unrelated; each lists some results of a single study. Changes are numbered by the printed parent chain.
# Chain of UniProt P11802 (whole entry, looked up): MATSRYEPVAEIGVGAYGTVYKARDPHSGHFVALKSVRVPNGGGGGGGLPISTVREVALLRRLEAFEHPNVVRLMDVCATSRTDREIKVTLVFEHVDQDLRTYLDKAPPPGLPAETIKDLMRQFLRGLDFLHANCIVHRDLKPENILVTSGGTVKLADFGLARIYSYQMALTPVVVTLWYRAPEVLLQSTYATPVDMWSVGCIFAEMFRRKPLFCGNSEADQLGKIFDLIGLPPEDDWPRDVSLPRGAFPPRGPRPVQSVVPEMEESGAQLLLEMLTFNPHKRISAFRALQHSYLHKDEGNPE
# Chain of UniProt P35626 (whole entry, looked up): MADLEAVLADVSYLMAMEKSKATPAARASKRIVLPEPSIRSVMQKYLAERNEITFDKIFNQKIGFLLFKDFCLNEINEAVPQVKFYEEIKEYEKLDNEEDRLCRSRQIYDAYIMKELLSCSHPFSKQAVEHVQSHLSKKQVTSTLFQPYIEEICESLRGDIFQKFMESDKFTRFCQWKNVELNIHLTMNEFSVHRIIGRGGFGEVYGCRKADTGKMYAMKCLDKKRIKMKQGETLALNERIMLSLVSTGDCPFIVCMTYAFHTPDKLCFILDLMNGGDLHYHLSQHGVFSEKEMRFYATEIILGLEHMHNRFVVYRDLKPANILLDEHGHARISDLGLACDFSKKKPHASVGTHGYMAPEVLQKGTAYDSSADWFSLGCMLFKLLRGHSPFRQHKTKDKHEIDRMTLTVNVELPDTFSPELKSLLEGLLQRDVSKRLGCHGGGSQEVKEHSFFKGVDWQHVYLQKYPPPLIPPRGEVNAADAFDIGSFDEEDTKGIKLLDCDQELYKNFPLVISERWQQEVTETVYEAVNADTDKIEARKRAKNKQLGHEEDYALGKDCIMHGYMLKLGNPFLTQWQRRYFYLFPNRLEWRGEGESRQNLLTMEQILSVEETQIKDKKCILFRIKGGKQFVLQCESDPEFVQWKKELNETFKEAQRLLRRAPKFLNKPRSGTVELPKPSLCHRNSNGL
# Chain of UniProt P36897 (whole entry, looked up): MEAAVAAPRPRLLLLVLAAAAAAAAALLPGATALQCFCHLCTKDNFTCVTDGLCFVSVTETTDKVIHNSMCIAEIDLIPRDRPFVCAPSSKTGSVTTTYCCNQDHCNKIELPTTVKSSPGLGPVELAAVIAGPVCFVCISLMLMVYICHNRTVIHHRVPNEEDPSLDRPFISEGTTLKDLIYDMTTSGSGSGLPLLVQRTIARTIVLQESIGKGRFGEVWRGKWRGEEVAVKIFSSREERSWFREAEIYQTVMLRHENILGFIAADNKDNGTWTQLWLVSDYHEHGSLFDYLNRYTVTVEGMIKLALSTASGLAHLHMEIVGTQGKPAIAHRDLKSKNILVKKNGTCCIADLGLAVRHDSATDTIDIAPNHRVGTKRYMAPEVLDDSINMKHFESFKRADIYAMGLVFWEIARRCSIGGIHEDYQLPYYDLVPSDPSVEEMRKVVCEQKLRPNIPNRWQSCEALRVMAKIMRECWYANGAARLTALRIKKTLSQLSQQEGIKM
# Chain of UniProt O96017 (whole entry, looked up): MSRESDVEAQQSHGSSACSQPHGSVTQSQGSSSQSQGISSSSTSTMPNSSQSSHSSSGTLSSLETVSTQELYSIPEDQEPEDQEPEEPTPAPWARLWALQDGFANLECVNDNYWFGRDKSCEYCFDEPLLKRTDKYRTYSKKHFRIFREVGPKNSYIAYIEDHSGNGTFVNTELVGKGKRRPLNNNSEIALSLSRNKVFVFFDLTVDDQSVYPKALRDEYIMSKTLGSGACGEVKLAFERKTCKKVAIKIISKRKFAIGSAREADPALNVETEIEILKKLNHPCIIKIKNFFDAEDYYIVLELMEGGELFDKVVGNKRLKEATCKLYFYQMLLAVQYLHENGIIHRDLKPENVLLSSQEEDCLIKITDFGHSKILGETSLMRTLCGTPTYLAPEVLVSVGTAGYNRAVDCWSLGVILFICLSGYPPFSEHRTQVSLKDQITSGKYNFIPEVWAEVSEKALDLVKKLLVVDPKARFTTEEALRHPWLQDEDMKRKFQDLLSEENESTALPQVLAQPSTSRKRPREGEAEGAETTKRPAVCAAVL
# Chain of UniProt Q08345 (whole entry, looked up): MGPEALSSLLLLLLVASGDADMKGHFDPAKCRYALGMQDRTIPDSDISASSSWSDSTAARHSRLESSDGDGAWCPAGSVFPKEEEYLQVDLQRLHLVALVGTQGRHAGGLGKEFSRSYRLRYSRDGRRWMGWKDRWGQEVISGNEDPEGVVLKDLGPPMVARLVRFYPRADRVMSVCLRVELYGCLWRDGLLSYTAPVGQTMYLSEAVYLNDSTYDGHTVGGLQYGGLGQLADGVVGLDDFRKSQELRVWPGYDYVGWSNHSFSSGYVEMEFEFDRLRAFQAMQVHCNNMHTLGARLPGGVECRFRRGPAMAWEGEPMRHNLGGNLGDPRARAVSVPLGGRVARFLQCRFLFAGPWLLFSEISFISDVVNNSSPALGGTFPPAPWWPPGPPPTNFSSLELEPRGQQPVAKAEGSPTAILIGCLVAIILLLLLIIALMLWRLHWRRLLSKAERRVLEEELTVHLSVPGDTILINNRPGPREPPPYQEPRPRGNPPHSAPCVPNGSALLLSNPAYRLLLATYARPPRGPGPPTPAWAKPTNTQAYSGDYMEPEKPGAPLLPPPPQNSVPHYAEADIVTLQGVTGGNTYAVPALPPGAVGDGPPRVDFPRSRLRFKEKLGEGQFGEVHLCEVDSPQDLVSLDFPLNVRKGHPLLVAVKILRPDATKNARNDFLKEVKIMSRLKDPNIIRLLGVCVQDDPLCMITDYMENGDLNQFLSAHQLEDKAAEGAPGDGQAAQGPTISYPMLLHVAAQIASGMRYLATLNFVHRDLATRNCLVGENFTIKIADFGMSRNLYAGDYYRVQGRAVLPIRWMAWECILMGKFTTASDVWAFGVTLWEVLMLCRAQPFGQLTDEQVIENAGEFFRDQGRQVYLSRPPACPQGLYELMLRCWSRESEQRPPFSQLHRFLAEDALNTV
# Chain of UniProt O95747 (whole entry, looked up): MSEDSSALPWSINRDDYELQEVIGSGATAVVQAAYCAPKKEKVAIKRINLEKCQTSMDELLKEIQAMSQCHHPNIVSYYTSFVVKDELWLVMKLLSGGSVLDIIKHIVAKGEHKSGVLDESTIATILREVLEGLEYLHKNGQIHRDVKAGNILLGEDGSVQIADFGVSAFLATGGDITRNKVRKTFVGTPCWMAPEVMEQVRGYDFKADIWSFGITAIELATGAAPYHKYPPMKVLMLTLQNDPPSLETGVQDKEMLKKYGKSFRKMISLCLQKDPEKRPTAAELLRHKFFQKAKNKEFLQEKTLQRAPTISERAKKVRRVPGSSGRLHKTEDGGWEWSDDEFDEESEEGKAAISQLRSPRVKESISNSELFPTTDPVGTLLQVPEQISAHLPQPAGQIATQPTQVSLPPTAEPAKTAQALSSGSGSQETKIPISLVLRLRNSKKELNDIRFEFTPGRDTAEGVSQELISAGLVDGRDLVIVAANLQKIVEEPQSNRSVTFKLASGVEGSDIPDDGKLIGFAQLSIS
# Chain of UniProt P29317 (whole entry, looked up): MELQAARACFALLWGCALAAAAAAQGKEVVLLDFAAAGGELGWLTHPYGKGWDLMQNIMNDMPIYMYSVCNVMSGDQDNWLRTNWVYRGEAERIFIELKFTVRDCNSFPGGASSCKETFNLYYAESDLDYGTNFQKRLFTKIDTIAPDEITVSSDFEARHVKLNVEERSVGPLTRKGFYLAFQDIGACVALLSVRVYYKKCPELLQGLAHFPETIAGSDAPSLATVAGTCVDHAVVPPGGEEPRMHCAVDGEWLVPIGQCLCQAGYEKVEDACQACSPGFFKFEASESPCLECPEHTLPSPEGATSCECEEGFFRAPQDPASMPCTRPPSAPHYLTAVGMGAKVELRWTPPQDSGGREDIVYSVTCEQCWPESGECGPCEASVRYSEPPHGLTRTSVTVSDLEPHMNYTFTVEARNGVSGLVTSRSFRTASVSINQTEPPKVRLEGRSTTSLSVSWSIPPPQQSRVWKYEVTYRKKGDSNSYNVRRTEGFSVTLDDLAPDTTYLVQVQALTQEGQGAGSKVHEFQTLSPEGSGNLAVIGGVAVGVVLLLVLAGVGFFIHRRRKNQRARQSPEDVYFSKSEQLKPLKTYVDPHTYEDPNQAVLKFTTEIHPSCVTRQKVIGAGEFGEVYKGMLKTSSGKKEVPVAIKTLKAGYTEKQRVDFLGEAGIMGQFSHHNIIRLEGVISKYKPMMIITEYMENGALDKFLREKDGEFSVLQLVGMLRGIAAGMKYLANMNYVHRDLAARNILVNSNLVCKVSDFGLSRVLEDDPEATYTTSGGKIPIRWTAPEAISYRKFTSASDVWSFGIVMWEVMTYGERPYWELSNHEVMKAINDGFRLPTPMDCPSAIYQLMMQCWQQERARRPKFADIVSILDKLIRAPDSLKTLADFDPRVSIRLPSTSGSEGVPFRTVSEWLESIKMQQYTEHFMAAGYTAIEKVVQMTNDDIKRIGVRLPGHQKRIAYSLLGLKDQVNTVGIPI
# Chain of UniProt P37173 (whole entry, looked up): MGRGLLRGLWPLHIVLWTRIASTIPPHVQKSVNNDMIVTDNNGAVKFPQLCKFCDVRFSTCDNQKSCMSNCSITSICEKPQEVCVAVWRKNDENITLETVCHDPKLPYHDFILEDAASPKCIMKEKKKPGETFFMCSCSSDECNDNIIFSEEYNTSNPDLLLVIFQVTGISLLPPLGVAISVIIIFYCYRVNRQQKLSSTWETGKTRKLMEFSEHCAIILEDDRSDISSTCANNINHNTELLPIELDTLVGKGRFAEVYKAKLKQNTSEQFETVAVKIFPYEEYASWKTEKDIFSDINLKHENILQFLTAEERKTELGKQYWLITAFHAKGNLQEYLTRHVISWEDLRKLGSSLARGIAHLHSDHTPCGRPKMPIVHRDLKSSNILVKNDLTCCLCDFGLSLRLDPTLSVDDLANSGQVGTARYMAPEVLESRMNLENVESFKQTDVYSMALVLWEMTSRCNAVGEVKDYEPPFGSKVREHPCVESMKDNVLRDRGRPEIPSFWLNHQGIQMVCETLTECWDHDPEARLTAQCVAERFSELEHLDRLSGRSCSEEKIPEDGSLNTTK

# Sample 1 — SMILES: CC(C)n1cnc2c(Nc3cccc(Cl)c3)nc(NCCO)nc21; read-out: enzyme activity; mode: inhibitor; tested at: 0.5 µM; reference: control
target,remaining activity
"CAMK2D (Homo sapiens, UniProt Q13557)",84.2%
"Tyrosine-protein kinase Lyn, isoform B (LYN, Homo sapiens, UniProt P07948)",94.6%
"Cyclin-dependent kinase 4, with cyclin D1 (CDK4, Homo sapiens, UniProt P11802)",77%
"PRKACA (Homo sapiens, UniProt P17612)",99.5%
"DAPK2 (Homo sapiens, UniProt Q9UIK4)",92.8%
"TGFBR2 (Homo sapiens, UniProt P37173)",70.2%
"GRK3 (Homo sapiens, UniProt P35626)",90.5%
"STK10 (Homo sapiens, UniProt O94804)",86.9%
"NEK2 (Homo sapiens, UniProt P51955)",97.6%
"CAMKK2 (Homo sapiens, UniProt Q96RR4)",68.2%
"CHEK2 (Homo sapiens, UniProt O96017)",78.5%
"OXSR1 (Homo sapiens, UniProt O95747)",97.8%
"IKBKE (Homo sapiens, UniProt Q14164)",97.6%
"STK39 (Homo sapiens, UniProt Q9UEW8)",100%
"DAPK1 (Homo sapiens, UniProt P53355)",78.8%
"Cyclin-dependent kinase 5, with p25 (CDK5, Homo sapiens, UniProt Q00535)",26.2%
"MAPK9 (Homo sapiens, UniProt P45984)",101%
"cGMP-dependent protein kinase 1, isoform beta (PRKG1, Homo sapiens, UniProt Q13976)",98.1%
"IKBKB (Homo sapiens, UniProt O14920)",102%
"TGFBR1 (Homo sapiens, UniProt P36897)",97.7%
"Protein kinase C beta type, isoform beta-I (PRKCB, Homo sapiens, UniProt P05771)",102%

# Sample 2 — technique: protein-binding microarray; molecule type: double-stranded DNA, one strand shown; matrix: in vitro; tested at: 250 nM; notes: 60-bp whole probe; together with: salmon DNA 0.4 mg/ml; reference: random background probes; direction: higher = stronger binding; constant ends, left off below: GCCTAGCAC … GTCTTGATTCGCTTGACGCTGCTG
# Target: Interferon regulatory factor 5, full length, phosphomimetic (IRF5, Homo sapiens, UniProt Q13568-2, residues 1-514, K96S/S451D/S453D/S456D/S462D)
Strand,log fluorescence
GCATCGTAAGCAAAAATGATGTGCTAG,0.4 z-score
TGGTTTTTACTTTCTGAATGGTGCTAG,3.83 z-score
GTAGATTTCGGGTTTCGATTAGTGCTA,8.36 z-score
TTTTTTTTTTTTTTGTATTTGTGCTAG,1.58 z-score
GACGGACTGGACTTTCGGGAGGTGCTA,4 z-score
GATGGTTTCGGTTCCGGGACGTGCTAG,10.1 z-score
TCAAAAATCTTTGTTGGAACTGTGCTA,0.336 z-score
TTGTTTTTTGGTTTCTGGTTGTGCTAG,3.76 z-score

# Sample 3 — target: CCNA1, cyclin fold, Cln2 fusion (human); technique: yeast growth competition, sequencing; matrix: yeast; notes: weak parent motif; reference: not given; direction: higher = stronger binding
# Starting sequence: FZR1 docking peptide (human); QDYERRLLRQIVI; partner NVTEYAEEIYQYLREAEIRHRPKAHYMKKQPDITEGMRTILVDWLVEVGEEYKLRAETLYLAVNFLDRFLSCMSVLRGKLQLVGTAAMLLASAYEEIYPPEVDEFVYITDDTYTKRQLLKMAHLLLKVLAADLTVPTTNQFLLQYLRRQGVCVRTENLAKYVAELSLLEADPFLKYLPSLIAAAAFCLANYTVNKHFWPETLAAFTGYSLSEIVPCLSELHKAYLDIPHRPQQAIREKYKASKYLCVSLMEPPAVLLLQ
Variant,normalised enrichment score
QDYERRLLAQIVI [R9A],0.21
ADYERRLLRQIVI [Q1A],0.371
QDYERRLFRQIVI [L8F],0.215
QDYERRLLRQIAI [V12A],0.211
QDYEKRLLRQIVI [R5K],0.169
QDYERRLLRQIVA [I13A],0.159
QDYEARALRQIVI [R5A L7A],0.289
QDYEARLLRQIVI [R5A],0.399

# Sample 4 — read-out: cell-free assay; technique: competition with immobilised ligand; tested at: 1 µM
# SMILES: CCCCN(CCCC)C(=O)CN1C[C@@H](c2cc(OC)c3c(c2)OCO3)[C@H](C(=O)O)[C@H]1CC(C)(C)CCC
target,remaining binding
"TNK1 (Homo sapiens, UniProt Q13470)",100%
"BMX (Homo sapiens, UniProt P51813)",84.6%
"DDR1 (Homo sapiens, UniProt Q08345)",100%
"DCLK1 (Homo sapiens, UniProt O15075)",81.5%
"Tyrosine-protein kinase JAK2, JH1 (JAK2, Homo sapiens, UniProt O60674)",91%
"EPHA2 (Homo sapiens, UniProt P29317)",97.8%
"PIK3CA (Homo sapiens, UniProt P42336, C420R)",99.4%
"GAK (Homo sapiens, UniProt O14976)",95.8%
"DYRK1A (Homo sapiens, UniProt Q13627)",96.3%
"MAPK6 (Homo sapiens, UniProt Q16659)",96.5%
"SRC (Homo sapiens, UniProt P12931)",75.2%
"AXL (Homo sapiens, UniProt P30530)",87.2%
"STK3 (Homo sapiens, UniProt Q13188)",100%
"Cyclin-dependent kinase 4, with cyclin D1 (CDK4, Homo sapiens, UniProt P11802)",100%
"CIT (Homo sapiens, UniProt O14578)",90.5%

# For quick reference, copied from above (sample 1):
target,remaining activity
"IKBKE (Homo sapiens, UniProt Q14164)",97.6%
"STK39 (Homo sapiens, UniProt Q9UEW8)",100%
"DAPK1 (Homo sapiens, UniProt P53355)",78.8%
